Measured values gathered from unrelated publications.
Values joined by “and” are separate records of one study, mostly repeats; a detail may differ. ± marks the error that the study gave.
USP20 ZnF-UBD domain: Ubiquitin carboxyl-terminal hydrolase 20, ZnF-UBD domain (USP20, Homo sapiens, UniProt Q9Y2K6)
Chain of UniProt Q9Y2K6 (whole entry, looked up): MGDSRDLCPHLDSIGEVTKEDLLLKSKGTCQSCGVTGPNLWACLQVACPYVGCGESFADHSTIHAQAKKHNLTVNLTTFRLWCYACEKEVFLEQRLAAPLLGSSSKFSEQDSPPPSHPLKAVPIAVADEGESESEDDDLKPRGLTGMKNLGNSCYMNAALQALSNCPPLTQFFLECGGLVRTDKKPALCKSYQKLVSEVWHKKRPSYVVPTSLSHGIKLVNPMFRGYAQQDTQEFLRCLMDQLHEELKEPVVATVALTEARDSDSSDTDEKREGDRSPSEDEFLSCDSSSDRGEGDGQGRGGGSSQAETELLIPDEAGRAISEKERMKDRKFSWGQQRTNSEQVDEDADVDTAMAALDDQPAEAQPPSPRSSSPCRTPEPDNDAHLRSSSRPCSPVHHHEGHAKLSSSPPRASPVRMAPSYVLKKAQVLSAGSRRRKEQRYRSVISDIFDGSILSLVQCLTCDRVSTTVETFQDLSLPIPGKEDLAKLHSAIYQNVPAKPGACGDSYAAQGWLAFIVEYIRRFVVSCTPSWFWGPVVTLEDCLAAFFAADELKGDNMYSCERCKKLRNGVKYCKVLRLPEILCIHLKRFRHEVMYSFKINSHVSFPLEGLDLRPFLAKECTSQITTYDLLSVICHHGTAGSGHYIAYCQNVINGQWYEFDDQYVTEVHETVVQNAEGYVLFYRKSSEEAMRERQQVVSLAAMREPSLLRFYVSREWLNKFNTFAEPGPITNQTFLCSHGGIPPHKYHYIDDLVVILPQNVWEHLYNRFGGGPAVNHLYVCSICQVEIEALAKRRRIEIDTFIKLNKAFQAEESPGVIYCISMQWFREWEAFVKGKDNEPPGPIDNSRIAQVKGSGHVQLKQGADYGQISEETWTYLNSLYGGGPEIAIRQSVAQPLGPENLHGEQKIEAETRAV
TOP2A: DNA topoisomerase 2-alpha (TOP2A, Homo sapiens, UniProt P11388)
Chain of UniProt Q86TG7 (whole entry, looked up): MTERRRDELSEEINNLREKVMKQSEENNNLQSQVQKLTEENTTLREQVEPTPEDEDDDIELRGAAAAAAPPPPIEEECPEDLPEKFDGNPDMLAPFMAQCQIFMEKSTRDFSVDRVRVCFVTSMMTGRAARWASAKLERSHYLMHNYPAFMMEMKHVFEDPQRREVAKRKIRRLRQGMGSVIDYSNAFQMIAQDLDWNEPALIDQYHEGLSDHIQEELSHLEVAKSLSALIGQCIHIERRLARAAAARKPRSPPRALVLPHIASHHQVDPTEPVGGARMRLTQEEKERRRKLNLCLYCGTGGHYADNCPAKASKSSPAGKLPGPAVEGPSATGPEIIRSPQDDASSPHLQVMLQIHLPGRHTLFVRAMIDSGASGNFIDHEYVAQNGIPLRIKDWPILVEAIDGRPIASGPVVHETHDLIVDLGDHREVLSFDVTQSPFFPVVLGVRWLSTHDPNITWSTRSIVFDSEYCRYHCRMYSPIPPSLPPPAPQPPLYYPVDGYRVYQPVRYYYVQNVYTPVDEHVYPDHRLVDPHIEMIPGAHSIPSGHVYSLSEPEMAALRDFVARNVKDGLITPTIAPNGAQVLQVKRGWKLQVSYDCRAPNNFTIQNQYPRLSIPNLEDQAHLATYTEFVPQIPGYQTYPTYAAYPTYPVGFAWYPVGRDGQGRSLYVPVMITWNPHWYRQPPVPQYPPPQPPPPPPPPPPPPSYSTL
Chain of UniProt P51575 (whole entry, unmodified, looked up): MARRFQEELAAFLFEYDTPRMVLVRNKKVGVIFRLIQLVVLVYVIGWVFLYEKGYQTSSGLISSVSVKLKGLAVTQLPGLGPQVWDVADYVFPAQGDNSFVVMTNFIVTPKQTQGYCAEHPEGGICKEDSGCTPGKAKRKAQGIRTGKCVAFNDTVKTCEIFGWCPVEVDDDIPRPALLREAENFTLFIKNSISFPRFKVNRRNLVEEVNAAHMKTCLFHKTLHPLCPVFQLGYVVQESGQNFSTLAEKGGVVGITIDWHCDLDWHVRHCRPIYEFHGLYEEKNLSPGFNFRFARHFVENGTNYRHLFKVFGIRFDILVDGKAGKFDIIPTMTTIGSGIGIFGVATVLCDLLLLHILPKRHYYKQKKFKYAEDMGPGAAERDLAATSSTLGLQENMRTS
Chain of UniProt P20393 (whole entry, looked up): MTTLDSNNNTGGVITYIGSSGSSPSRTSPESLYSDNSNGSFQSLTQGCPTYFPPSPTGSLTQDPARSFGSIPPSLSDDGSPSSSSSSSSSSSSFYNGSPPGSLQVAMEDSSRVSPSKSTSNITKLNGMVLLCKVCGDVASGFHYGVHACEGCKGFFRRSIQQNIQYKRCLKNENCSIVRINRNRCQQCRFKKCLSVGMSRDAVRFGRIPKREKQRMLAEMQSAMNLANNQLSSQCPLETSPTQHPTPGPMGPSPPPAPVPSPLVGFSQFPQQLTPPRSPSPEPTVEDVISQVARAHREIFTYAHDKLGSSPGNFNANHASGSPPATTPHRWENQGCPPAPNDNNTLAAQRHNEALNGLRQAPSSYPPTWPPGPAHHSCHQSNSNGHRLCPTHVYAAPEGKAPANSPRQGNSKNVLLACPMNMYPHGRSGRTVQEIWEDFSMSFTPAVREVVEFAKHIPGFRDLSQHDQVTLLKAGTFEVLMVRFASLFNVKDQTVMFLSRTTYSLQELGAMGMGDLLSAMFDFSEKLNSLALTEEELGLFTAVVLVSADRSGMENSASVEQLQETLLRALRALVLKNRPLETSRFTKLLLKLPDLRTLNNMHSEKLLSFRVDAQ
Chain of UniProt P11388 (whole entry, looked up): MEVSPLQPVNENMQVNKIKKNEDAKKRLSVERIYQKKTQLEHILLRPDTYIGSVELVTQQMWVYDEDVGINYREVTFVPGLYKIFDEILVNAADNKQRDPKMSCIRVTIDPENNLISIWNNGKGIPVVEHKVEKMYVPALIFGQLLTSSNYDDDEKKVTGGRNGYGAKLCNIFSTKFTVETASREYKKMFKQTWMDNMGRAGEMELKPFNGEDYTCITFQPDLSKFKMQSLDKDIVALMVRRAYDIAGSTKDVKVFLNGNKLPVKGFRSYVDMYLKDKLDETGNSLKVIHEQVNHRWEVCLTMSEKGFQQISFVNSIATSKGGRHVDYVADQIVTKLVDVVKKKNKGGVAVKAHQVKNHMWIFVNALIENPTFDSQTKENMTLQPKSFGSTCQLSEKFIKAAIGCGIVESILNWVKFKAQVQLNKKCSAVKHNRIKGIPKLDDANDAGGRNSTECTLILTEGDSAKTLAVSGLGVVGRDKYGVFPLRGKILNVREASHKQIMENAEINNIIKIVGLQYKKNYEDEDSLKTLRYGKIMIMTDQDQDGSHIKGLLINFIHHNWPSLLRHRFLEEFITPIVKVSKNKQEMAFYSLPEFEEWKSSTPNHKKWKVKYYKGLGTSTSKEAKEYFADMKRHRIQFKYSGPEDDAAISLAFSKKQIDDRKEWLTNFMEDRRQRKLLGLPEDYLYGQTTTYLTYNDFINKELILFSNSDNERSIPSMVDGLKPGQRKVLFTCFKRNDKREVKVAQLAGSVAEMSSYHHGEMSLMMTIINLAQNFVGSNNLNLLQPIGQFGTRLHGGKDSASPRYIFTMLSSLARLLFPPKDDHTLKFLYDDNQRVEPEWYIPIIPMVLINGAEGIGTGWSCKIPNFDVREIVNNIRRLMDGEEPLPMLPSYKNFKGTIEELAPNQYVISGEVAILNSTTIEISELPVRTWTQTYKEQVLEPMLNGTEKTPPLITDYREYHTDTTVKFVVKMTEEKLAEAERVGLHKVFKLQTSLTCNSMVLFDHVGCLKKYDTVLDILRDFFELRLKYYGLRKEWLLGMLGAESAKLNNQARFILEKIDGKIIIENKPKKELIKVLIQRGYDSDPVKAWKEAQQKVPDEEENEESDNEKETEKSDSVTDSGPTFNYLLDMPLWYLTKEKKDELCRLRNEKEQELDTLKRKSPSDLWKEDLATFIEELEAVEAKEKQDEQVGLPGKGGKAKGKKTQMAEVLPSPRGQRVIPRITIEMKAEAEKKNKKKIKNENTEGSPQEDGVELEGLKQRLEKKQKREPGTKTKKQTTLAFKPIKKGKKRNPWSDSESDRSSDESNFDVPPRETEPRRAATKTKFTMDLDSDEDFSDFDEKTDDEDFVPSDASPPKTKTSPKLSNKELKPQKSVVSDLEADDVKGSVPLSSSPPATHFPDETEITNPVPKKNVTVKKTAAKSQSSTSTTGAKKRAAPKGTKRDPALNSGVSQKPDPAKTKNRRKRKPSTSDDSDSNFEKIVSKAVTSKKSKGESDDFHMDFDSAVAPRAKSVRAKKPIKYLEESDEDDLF
Chain of UniProt P42330 (whole entry, looked up): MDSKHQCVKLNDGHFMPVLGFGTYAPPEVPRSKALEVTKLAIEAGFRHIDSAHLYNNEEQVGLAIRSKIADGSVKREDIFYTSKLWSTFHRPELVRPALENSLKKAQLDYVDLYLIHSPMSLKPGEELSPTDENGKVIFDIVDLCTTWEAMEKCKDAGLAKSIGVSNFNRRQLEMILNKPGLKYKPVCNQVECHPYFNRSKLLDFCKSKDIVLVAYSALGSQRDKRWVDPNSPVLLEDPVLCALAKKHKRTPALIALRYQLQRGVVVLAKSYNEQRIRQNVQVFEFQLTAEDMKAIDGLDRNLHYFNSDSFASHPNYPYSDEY
Chain of UniProt Q16774 (whole entry, looked up): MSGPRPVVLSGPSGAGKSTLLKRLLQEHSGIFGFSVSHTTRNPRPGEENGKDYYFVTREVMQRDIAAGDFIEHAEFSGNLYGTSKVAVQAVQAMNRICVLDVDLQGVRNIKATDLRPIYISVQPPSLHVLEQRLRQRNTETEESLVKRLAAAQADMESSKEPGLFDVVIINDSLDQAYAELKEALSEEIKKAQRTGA
Chain of UniProt O43570 (whole entry, looked up): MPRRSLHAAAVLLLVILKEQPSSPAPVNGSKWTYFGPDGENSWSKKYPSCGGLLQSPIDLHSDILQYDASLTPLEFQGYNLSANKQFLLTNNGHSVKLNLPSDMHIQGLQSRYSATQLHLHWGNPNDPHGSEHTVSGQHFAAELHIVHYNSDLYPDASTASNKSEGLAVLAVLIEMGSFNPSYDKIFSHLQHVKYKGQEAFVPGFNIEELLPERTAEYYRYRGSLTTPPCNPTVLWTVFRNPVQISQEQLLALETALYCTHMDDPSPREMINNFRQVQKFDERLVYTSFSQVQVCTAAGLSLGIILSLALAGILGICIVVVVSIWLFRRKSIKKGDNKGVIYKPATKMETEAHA

| SMILES | tested on | test | test system | conditions | how to read | quantity | value |
| --- | --- | --- | --- | --- | --- | --- | --- |
| CC(C)[C@H](NC(=O)[C@H](Cc1ccc(O)cc1)NC(=O)[C@H](Cc1ccc(O)cc1)NC(=O)[C@@H]1CCCN1C(=O)[C@H](CCC(=O)O)NC(=O)[C@H](CCC(=O)O)NC(=O)[C@H](Cc1c[nH]c2ccccc12)NC(=O)[C@@H]1CCCN1C(=O)[C@@H](NC(=O)[C@H](CCC(N)=O)NC(=O)c1ccc2c(c1)C(=O)OC21c2ccc(O)cc2Oc2cc(O)ccc21)C(C)C)C(=O)N[C@H](C(=O)N[C@@H](CCCCN)C(=O)N[C@@H](CCCCN)C(=O)N[C@@H](CO)C(=O)N[C@@H](CO)C(=O)NCC(=O)NCC(N)=O)C(C)C |  |  | human, plasma | intravenous infusion, 600 mg, 8 h |  | plasma concentration | 21.1 ng/mL |
| NS(=O)(=O)c1ccc(NCC(=O)O)cc1 | USP20 ZnF-UBD domain |  |  |  |  | Kd | > 1000 µM |
| CCCCC[C@H](O)/C=C/[C@H]1[C@H](O)CC(=O)[C@@H]1C/C=C\CCCC(=O)O | PTGER1 (Homo sapiens, UniProt P34995, F334L) | IP1 accumulation, agonist | AD293 | 1 h | relative to: wild type receptor | Emax | 94.6 ± 7.45% |
| N#Cc1ccc2c(CN3CCOCC3)cc(-c3ccc([C@@H]4CCC(=O)N4)cc3)nc2c1 | Advanced glycosylation end product-specific receptor, with DIAPH1 (AGER, Homo sapiens, UniProt Q15109) | acceptor photobleaching | HEK-293T expressing RAGE-eCFP | 0.1 µM, 60 min |  | FRET efficiency | 4.5 ± 0.3% |
| N#CSCc1cc(=O)oc2cc(O)ccc12 | CA12 (Homo sapiens, UniProt O43570) | stopped-flow CO2 hydration |  |  | relative to: Ki CA II over Ki CA XII | selectivity ratio | > 4240 |
| CCC(=O)NS(=O)(=O)c1ccc(-c2c(-c3ccccc3)noc2C)cc1 | NR1D1 (Homo sapiens, UniProt P20393) | reporter gene, Gal4 hybrid reporter |  | 50 µM | relative to: vehicle | activation | 0.64 fold |
| O=C(O)c1ccc(Nc2ncc3c(n2)-c2ccc(Cl)cc2C(c2c(F)cccc2F)=NC3)cc1 | ROCK-II(h) | kinase activity |  | 1 µM |  | remaining activity | 100% |
| CC[C@@H](C)[C@@H](NC(=O)[C@@H](Cc1ccc(O)cc1)NC(=O)[C@H]1CCCN1C(=O)[C@@H](CCCNC(=N)N)NC(=O)[C@H](N)Cc1c[nH]cn1)C(=O)N[C@H](C)C(=O)N[C@H](Cc1c[nH]cn1)C(=O)N[C@H](CCCNC(=N)N)C(=O)N[C@@H](C(=O)N[C@H](Cc1ccc(O)cc1)C(=O)N[C@H](CO)C(=O)N[C@H](Cc1ccccc1)C(N)=O)C(C)C | Transferrin receptor protein 1 (Tfrc, Mus musculus, UniProt Q62351) | flow cytometry | RAW264.7 | 2 h, pH 7.4, unit not given | relative to: 0 h | surface TFRC expression | 0.991 |
| COc1cc(-c2cc(C(C)=O)n3ccccc23)cc(OC)c1Cn1ccnc1 | TAF1 (Homo sapiens, UniProt P21675) |  |  |  |  | ΔTm | 1 °C |
| Nc1ncnc2c1ncn2[C@@H]1O[C@H](COP(=O)(O)CP(=O)(O)OP(=O)(O)O)[C@@H](O)[C@H]1O | P2X purinoceptor 1 (P2RX1, Homo sapiens, UniProt P51575, R292A) | calcium influx |  | 1 µM | relative to: ionomycin response | calcium influx | 0.059% and 0.101% and 0.713% and 0.823% |
| CC(C)C[C@H](NC(=O)C[C@H](O)[C@H](CC(C)C)NC(=O)[C@H](Cc1c[nH]cn1)NC(=O)CNC(=O)[C@@H](NC(=O)[C@H](C)NC(=O)[C@H](Cc1c[nH]c2ccccc12)NC(=O)[C@H](CCC(N)=O)NC(=O)[C@@H](Cc1ccccc1)NC(=O)COCCOCCNC(=O)CCC(C(=O)O)N1CCN(CC(=O)O)CCN(CC(=O)O)CCN(CC(=O)O)CC1)C(C)C)C(N)=O (stereo partly drawn) [lutetium-177 labelled] |  |  | BALB/c nu/nu mice, brain | intravenous, 50 pmol, 1 h, added: PA 300 µg |  | tissue uptake | 0.03 ± 0.01 %ID/g |
| CC[C@@H]1[C@H](F)C(=O)N[C@@H]1COc1nccc2cc(C(N)=O)c(OC)cc12 | STK38 (Homo sapiens, UniProt Q15208) | ATP-site probe binding, ActivX profiling | THP-1 cell lysate | 0.2 mM, Lys2 site |  | inhibition | 31.8% |
| Nc1nc2c(ncn2[C@@H]2O[C@H](COP(=O)(O)O)[C@@H](O)[C@H]2O)c(=O)[nH]1 | GUK1 (Homo sapiens, UniProt Q16774) | substrate, NADH-coupled |  | KCl 50 mM, enzyme 2 nM |  | Vmax | 0.154 µM/s |
| Nc1ncnc2c1ncn2[C@@H]1O[C@H](COP(=O)(O)OP(=O)(O)O)[C@@H](O)[C@H]1O | CKMT1A (Homo sapiens, UniProt P12532) | substrate, Kinase-Glo luminescence |  | pH 7.0, reverse reaction, WT mutant, added: second substrate in excess |  | kcat | 41 ± 14 s⁻¹ |
| COc1cc(-c2cncc3c2CN(C)Cc2cc(N4CCNCC4)ccc2-3)cc(OC)c1OC | TTK (Homo sapiens, UniProt P33981) | kinase activity |  | 1 µM, human enzyme, added: ATP 10 µM | relative to: DMSO control | remaining activity | 106% |
| C[C@H]1CCC[C@H](C(=O)Nc2nnc(S(N)(=O)=O)s2)C1 (racemic) | Alpha-carbonic anhydrase (Enterococcus faecium, UniProt Q3XYE8) | CO2 hydration, inhibitor, stopped-flow kinetics |  |  |  | Ki | 0.0421 µM |
| CC(C)C[C@H](N)C(=O)Nc1ccc2ccccc2c1 | rat neuron-specific aminopeptidase | substrate |  | MW 110 kDa |  | kcat | 12.3 s⁻¹ |
| CCC1(O)CCCN(C(=O)c2ccc(-c3ccc(F)c(NC(=O)CCl)c3)cc2)C1 (stereo not drawn) | DNA dC->dU-editing enzyme APOBEC-3B, C-terminal domain (Homo sapiens, UniProt Q9UH17) | covalent modifier, intact protein mass spectrometry, item: adduct +26104 Da |  | 250 µM, 3 h, 10-fold molar excess |  | protein adduct | 8% |

| SMILES | tested on | test | test system | conditions | how to read | quantity | value |
| --- | --- | --- | --- | --- | --- | --- | --- |
| C=CC(=O)N1CCC[C@@H](n2nc(-c3ccc(Oc4ccccc4)cc3)c3c(N)ncnc32)C1 | EIF2AK2 (Homo sapiens, UniProt P19525) |  |  | 1 µM |  | remaining activity | 185% |
| Cc1ccc(NC2=CC(=O)N(C3CCC(=O)NC3=O)C2=O)cc1C(C)(C)NCCc1ccc(C(F)(F)F)c(Cl)c1 (stereo not drawn) | ZBTB11/CRBN (Homo sapiens, UniProt O95625+Q96SW2) | protein degradation, degrader, HiBiT luminescence | MOLT-4 |  |  | Dmax | 27% |
| O=C(COP(=O)(O)O)[C@@H](O)[C@H](O)[C@H](O)COP(=O)(O)O | Retrotransposon-derived protein PEG10 (PEG10, Homo sapiens, UniProt Q86TG7) | thermal proteome profiling, item: PEG10 | HepG2 cell lysate | concentration not given, 57 over 37 °C | relative to: compound over control | thermal stability ratio | 0.389 and 0.923 and 0.7 |
| O=c1c2ccccc2c(Cc2ccc(Cl)cc2)nn1C1CCCNCC1 (stereo not drawn) | CatSper channel complex (Homo sapiens, UniProt Q7RTX7+Q86XQ3+Q8NEC5+Q96P56) | ion current, whole-cell patch clamp | human sperm | 10 µM, at +80 mV |  | outward current density | 0.1 ± 1.4 pA/pF |
| N#Cc1ccn2c(-c3ccncc3)c(-c3ccc(F)cc3)nc2c1 | Negative regulator of the PHO system (PHO85, Candida albicans, UniProt Q9HGY5) | kinase binding, competitor, MIB/MS competition, item: PHO85 | Candida albicans cell lysate | 1 µM | relative to: DMSO | log2 fold change | 0.337 |
| CC(C)OCCn1c(=S)[nH]c(=O)c2[nH]ccc21 | Myeloperoxidase (MPO, Homo sapiens, UniProt P05164) | H2O2 consumption, inhibitor, H2O2 electrode |  | 0.45 µM, 0.2 s |  | H2O2 concentration | -0.483 µM |
| O=c1nc(SCc2cc(F)cc(C(F)(F)F)c2)nc(SCc2ccc3nc(Cl)ccc3c2)[nH]1 | TOP2A | decatenation |  | 31.25 µM, replicate 1 |  | decatenated DNA | 0% |
| NCCCCC(=O)O | SLC6A6 (Homo sapiens, UniProt P31641, G62A) | binding, microscale thermophoresis |  | 1 mM, room temperature, added: 50 nM labelled protein | higher = more binding | normalised MST signal | 0.0551 |
| COc1cc(C(=O)NS(=O)(=O)c2ccccc2C)ccc1Cc1cn(C)c2ccc(NC(=O)OC3CCCC3)cc12 | Volume-regulated anion channel subunit LRRC8C, part LRRC8A IL1 chimera (LRRC8C, Homo sapiens, UniProt Q8TDW0, Y126F) | ion current, inhibitor, whole-cell patch clamp | HCT LRRC8-/- cells | 0.1 µM, +100 mV |  | inhibition | 0.922% and 10.6% and 24.2% and 31.9% and 25.3% and 3.42% |
| CC1=C(/C=C/C(C)=C/C=C/C(C)=C/C=O)C(C)(C)CCC1 | Rhodopsin (RHO, Bos taurus, UniProt P02699, F273A) | retinal entry, Trp FRET | lipid bicelles | 28 °C, F273A mutant | relative to: wild-type rhodopsin | relative kon | 0.336 ± 0.057 |
| O=C(CCCc1ccccc1)C(=O)NCCc1ccc(Oc2ccc(C(F)(F)F)cn2)cc1 | APEH (Homo sapiens, UniProt P13798) | inhibitor, FP-biotin chemoproteomics, item: ACPH | HepG2 | concentration not given | relative to: DMSO, lower = stronger inhibition | probe-enriched protein abundance | 516000 a.u. |
| O=C(O)CCc1ccno1 | USP20 ZnF-UBD domain |  |  |  |  | Kd | > 1000 µM |
| C=CC(=O)N1CCC(COCC(=O)N2CCN(c3nc(-c4cnc(N)nc4C(F)F)nc(N4CCOC[C@@H]4C)n3)CC2)CC1 | Cyclin-dependent kinase 4, with cyclin D1 (CDK4, Homo sapiens, UniProt P11802) | KINOMEscan |  | 1 µM |  | remaining binding | 90% |
| Cc1nnc2n1-c1sc(C#Cc3cnn(C4(CCN5CCN(C)CC5)CN(c5cccc6c5C(=O)N(C5CCC(=O)NC5=O)C6=O)C4)c3)c(Cc3ccccc3)c1COC2 (stereo not drawn) | BRD3 (Homo sapiens, UniProt Q15059) | degrader, western blot | SCID mouse MDA-MB-231 xenograft, tumour | intraperitoneal, 20 mg/kg single dose, 3 to 48 h |  | protein level | no effect |
| O=c1nc(SCc2cc(F)cc(C(F)(F)F)c2)nc(SCc2ccc3sccc3c2)[nH]1 | TOP2A | DNA relaxation |  | 7.8 µM, replicate 1 |  | relaxed DNA | 98.1% |
| CCOC(=O)C(CCCSC)NC(=O)c1ccc(C2CC2)c(Cc2ccc(F)cc2)n1 (stereo not drawn) | CNR2 (Homo sapiens, UniProt P34972) | radioligand binding |  |  | relative to: CB1 over CB2 (human) | Ki ratio | 4 |
| [2H]c1cc(C)c(NC(=O)c2cnc(Nc3cc(N4CCCCC4)nc(C)n3)s2)c(Cl)c1 | YES1 (Homo sapiens, UniProt P07947) |  |  | 0.0001 µM |  | inhibition | > 50% |
| C#CCOc1ccccc1N1CCN(C(=O)c2cccc(S(=O)(=O)n3cnc(C4CC4)n3)c2)CC1 | AKR1C3 (Homo sapiens, UniProt P42330) | label-free chemoproteomics LC-MS/MS, item: Tyr24 | COLO 205 | 100 µM, 4 h, 37 °C |  | probe-modified peptide count | 520 PSMs |

Excerpt of the above:
| SMILES | tested on | test | test system | conditions | how to read | quantity | value |
| --- | --- | --- | --- | --- | --- | --- | --- |
| CC(C)C[C@H](NC(=O)C[C@H](O)[C@H](CC(C)C)NC(=O)[C@H](Cc1c[nH]cn1)NC(=O)CNC(=O)[C@@H](NC(=O)[C@H](C)NC(=O)[C@H](Cc1c[nH]c2ccccc12)NC(=O)[C@H](CCC(N)=O)NC(=O)[C@@H](Cc1ccccc1)NC(=O)COCCOCCNC(=O)CCC(C(=O)O)N1CCN(CC(=O)O)CCN(CC(=O)O)CCN(CC(=O)O)CC1)C(C)C)C(N)=O (stereo partly drawn) [lutetium-177 labelled] |  |  | BALB/c nu/nu mice, brain | intravenous, 50 pmol, 1 h, added: PA 300 µg |  | tissue uptake | 0.03 ± 0.01 %ID/g |
| CC[C@@H]1[C@H](F)C(=O)N[C@@H]1COc1nccc2cc(C(N)=O)c(OC)cc12 | STK38 (Homo sapiens, UniProt Q15208) | ATP-site probe binding, ActivX profiling | THP-1 cell lysate | 0.2 mM, Lys2 site |  | inhibition | 31.8% |
| Nc1nc2c(ncn2[C@@H]2O[C@H](COP(=O)(O)O)[C@@H](O)[C@H]2O)c(=O)[nH]1 | GUK1 (Homo sapiens, UniProt Q16774) | substrate, NADH-coupled |  | KCl 50 mM, enzyme 2 nM |  | Vmax | 0.154 µM/s |
| Nc1ncnc2c1ncn2[C@@H]1O[C@H](COP(=O)(O)OP(=O)(O)O)[C@@H](O)[C@H]1O | CKMT1A (Homo sapiens, UniProt P12532) | substrate, Kinase-Glo luminescence |  | pH 7.0, reverse reaction, WT mutant, added: second substrate in excess |  | kcat | 41 ± 14 s⁻¹ |
| COc1cc(-c2cncc3c2CN(C)Cc2cc(N4CCNCC4)ccc2-3)cc(OC)c1OC | TTK (Homo sapiens, UniProt P33981) | kinase activity |  | 1 µM, human enzyme, added: ATP 10 µM | relative to: DMSO control | remaining activity | 106% |
